# Measured values gathered from unrelated publications.
# ± gives the spread as reported.
# CYP2D6: Cytochrome P450 2D6 (CYP2D6, Homo sapiens, UniProt P10635)
# Chain of UniProt P10635 (whole entry, looked up): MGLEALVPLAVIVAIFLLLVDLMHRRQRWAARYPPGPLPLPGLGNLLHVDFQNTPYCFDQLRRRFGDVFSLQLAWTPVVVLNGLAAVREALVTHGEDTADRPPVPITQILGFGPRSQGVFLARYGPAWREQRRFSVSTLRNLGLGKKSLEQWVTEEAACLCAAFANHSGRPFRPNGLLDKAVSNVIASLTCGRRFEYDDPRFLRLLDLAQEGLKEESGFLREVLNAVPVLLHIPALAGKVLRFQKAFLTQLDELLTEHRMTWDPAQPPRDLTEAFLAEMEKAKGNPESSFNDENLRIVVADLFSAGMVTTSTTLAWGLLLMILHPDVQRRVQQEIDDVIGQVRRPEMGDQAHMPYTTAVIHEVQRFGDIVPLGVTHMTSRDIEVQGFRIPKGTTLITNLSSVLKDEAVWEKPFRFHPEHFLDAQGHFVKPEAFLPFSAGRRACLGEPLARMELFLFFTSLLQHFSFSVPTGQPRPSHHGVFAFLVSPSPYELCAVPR
# DCN1-like protein 1: DCN1-like protein 1 (Homo sapiens, UniProt Q96GG9)
# Chain of UniProt Q96GG9 (whole entry, looked up): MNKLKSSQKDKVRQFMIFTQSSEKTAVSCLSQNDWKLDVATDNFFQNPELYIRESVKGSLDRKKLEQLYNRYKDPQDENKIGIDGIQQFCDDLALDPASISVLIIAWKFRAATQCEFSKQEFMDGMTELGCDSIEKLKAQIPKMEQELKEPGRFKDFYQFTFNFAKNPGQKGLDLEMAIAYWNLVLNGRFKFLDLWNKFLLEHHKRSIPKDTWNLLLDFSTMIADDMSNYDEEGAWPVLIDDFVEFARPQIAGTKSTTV
# GLP1R: Glucagon-like peptide 1 receptor (GLP1R, Homo sapiens, UniProt P43220)
# Chain of UniProt P08172 (whole entry, looked up): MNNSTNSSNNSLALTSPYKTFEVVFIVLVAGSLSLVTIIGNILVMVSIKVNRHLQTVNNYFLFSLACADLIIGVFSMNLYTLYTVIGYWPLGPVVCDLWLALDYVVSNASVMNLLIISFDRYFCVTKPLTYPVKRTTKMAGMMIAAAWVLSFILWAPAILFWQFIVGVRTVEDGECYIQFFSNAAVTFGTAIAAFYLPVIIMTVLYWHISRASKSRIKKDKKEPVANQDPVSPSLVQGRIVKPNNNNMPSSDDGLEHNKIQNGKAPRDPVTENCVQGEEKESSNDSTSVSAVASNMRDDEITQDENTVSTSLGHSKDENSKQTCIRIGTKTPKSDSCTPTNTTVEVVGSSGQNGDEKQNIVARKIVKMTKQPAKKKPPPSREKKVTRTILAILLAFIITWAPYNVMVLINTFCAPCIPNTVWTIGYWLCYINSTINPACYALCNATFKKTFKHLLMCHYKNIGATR
# Chain of UniProt P04629 (whole entry, looked up): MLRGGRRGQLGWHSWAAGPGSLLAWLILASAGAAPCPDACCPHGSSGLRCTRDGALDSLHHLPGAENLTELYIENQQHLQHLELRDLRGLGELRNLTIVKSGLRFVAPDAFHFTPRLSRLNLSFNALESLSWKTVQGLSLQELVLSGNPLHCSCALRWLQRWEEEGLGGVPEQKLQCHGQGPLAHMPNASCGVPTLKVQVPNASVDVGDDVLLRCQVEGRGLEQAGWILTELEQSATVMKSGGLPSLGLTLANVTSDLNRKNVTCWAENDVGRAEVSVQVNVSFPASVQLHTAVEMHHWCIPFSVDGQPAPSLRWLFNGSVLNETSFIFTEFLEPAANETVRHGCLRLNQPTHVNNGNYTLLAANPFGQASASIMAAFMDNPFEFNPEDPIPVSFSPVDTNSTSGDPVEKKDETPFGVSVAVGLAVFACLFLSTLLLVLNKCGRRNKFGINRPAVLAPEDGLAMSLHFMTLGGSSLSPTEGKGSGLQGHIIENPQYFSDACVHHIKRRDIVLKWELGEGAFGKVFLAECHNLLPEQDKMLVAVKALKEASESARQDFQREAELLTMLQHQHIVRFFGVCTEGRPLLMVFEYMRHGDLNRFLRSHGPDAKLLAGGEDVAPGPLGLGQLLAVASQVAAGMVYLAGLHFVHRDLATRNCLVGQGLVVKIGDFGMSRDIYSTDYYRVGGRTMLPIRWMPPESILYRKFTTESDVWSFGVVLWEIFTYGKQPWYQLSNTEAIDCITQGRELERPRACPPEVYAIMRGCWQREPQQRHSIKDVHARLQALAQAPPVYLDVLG
# Chain of UniProt Q8NET8 (whole entry, unmodified, looked up): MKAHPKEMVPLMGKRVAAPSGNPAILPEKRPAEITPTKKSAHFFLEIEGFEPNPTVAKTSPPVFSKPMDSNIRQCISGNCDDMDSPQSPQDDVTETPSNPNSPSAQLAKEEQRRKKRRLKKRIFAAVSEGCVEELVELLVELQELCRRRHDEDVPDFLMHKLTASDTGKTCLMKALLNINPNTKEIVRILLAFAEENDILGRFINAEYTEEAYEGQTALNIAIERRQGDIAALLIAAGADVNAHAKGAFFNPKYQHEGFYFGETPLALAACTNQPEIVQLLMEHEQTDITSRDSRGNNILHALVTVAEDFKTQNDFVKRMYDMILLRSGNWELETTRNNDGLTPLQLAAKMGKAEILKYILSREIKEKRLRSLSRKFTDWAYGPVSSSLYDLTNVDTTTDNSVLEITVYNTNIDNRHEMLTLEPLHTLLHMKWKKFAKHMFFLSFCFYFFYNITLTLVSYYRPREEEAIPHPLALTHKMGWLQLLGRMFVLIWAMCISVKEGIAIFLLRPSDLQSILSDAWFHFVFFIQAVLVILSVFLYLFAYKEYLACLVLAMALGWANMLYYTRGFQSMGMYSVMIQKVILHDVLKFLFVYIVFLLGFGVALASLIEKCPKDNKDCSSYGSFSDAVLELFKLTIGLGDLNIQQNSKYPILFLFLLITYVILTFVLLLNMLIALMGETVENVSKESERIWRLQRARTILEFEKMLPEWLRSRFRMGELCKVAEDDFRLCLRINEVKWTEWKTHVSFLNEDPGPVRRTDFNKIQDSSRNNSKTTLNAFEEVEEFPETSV
# Chain of UniProt P08908 (whole entry, looked up): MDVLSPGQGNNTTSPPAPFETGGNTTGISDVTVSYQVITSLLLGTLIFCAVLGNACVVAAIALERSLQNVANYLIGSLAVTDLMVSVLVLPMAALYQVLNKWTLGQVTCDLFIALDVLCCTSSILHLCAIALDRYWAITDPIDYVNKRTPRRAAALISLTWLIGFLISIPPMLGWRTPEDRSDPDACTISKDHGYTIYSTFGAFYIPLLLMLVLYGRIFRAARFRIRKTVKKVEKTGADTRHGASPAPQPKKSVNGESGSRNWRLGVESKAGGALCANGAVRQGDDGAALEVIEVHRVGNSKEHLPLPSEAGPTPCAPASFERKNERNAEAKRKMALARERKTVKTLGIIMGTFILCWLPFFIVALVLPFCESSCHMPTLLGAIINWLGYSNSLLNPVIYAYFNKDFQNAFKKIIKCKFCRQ
# Chain of UniProt P28335 (whole entry, looked up): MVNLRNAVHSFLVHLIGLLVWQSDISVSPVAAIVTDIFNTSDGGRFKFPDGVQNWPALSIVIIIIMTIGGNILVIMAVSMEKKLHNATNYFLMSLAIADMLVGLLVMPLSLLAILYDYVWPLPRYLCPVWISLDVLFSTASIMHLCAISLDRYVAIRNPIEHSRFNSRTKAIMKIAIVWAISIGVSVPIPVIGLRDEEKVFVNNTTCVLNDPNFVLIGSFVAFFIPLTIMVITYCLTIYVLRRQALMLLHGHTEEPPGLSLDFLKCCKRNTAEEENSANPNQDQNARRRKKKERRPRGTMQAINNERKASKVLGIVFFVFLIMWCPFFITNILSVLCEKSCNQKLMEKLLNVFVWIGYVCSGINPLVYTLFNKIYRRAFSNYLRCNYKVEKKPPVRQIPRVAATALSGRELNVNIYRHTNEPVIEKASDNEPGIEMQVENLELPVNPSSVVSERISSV
Structure (SMILES),target,assay,system,setting,scale,measurement,value
Cc1cccc([C@H](C)c2cnc[nH]2)c1C,CYP2D6,binding,,"20 min, pH 7.4, purified protein, 2% DMSO",,Kd,4.8 µM
CC(=O)NCCN1C(=O)[C@@H](NC(=O)c2cccc(C(F)(F)F)c2)[C@@H](c2ccc(F)cc2)c2c(C)nn(-c3ccccc3)c21,DCN1-like protein 1,,,,,IC50,> 15 µM
CC(NC(C)(C)C)C(=O)c1cccc(Cl)c1 (stereo not drawn),CYP2D6,,,pH 7.4,,IC50,23.9 µM
CC[C@H](C)[C@H](NC(=O)[C@H](Cc1ccccc1)NC(=O)[C@H](CCC(=O)O)NC(=O)[C@H](CCCNC(=N)N)NC(=O)[C@H](C)NC(=O)[C@H](C)NC(=O)[C@H](CCC(N)=O)NC(=O)[C@H](CCC(=O)O)NC(=O)[C@H](CCC(=O)O)NC(=O)[C@H](CC(C)C)NC(=O)[C@H](Cc1ccc(O)cc1)NC(=O)[C@H](CO)NC(=O)[C@H](CO)NC(=O)[C@@H](NC(=O)[C@H](CC(=O)O)NC(=O)[C@H](CO)NC(=O)[C@@H](NC(=O)[C@H](Cc1ccccc1)NC(=O)[C@@H](NC(=O)CNC(=O)[C@H](CCC(=O)O)NC(=O)[C@H](C)NC(=O)CCc1cnc[nH]1)[C@@H](C)O)[C@@H](C)O)C(C)C)C(=O)N[C@@H](C)C(=O)N[C@@H](Cc1c[nH]c2ccccc12)C(=O)N[C@@H](CC(C)C)C(=O)N[C@H](C(=O)N[C@@H](CCCCNc1c(NCCCCCN(O)C(=O)CCC(=O)NCCCCCN(O)C(=O)CCC(=O)NCCCCCN(O)C(C)=O)c(=O)c1=O)C(=O)NCC(=O)N[C@@H](CCCNC(=N)N)C(=O)N[C@@H](CCCCNC(=O)COCCOCCNC(=O)COCCOCCNC(=O)CC[C@H](NC(=O)CCCCCCCCCCCCCCCCC(=O)O)C(=O)O)C(=O)NCC(=O)NCC(=O)N[C@@H](CO)C(=O)N[C@@H](CCCCNc1c(NCCCCCN(O)C(=O)CCC(=O)NCCCCCN(O)C(=O)CCC(=O)NCCCCCN(O)C(C)=O)c(=O)c1=O)C(=O)O)C(C)C,GLP1R,"cAMP reporter gene, agonist, CRE luciferase",BHK,"without Zr, 1% HSA",,EC50,0.34 nM
CC[C@@H](CO)NC(=O)[C@@H]1C=C2c3cccc4c3c(cn4C)C[C@H]2N(C)C1,"5-hydroxytryptamine receptor 1A (HTR1A, Homo sapiens, UniProt P08908)",,,,,Ki,0.025 µM
CCN1C(=O)[C@@H](NS(=O)(=O)c2cccc(C(F)(F)F)c2)[C@@H](c2ccc(F)cc2)c2c(C)nn(-c3ccccc3)c21,DCN1-like protein 1,,,,,IC50,> 15 µM
C[C@H]1CN(c2n[nH]c3nc(N[C@H]4CC[C@H](NS(=O)(=O)CCC(F)(F)F)CC4)ncc23)CCO1,"High affinity nerve growth factor receptor (NTRK1, Homo sapiens, UniProt P04629)","inhibitor, Kinobeads competition profiling",,0.8 µM,reference: vehicle,relative abundance,1.06
CNC(C)Cc1ccc2c(c1)OCO2 (stereo not drawn),CYP2D6,"enzyme activity, time-dependent inhibitor",,"preincubation with NADPH, with: dextromethorphan O-demethylation",,IC50,0.53 µM
Cc1nn(-c2ccccc2)c2c1[C@H](c1ccc(F)cc1)[C@H](NC(=O)c1cccc(C(F)(F)F)c1)C(=O)N2CCNC(=O)OC(C)(C)C,DCN1-like protein 1,,,,,IC50,> 15 µM
CC[C@H](C)[C@H](NC(=O)[C@H](Cc1ccccc1)NC(=O)[C@H](CCC(=O)O)NC(=O)[C@H](CCCNC(=N)N)NC(=O)[C@H](C)NC(=O)[C@H](C)NC(=O)[C@H](CCC(N)=O)NC(=O)[C@H](CCCCNc1c(NCCCCCN(O)C(=O)CCC(=O)NCCCCCN(O)C(=O)CCC(=O)NCCCCCN(O)C(C)=O)c(=O)c1=O)NC(=O)[C@H](CCC(=O)O)NC(=O)[C@H](CC(C)C)NC(=O)[C@H](Cc1ccc(O)cc1)NC(=O)[C@H](CO)NC(=O)[C@H](CO)NC(=O)[C@@H](NC(=O)[C@H](CC(=O)O)NC(=O)[C@H](CO)NC(=O)[C@@H](NC(=O)[C@H](Cc1ccccc1)NC(=O)[C@@H](NC(=O)CNC(=O)[C@H](CCC(=O)O)NC(=O)[C@H](C)NC(=O)CCc1cnc[nH]1)[C@@H](C)O)[C@@H](C)O)C(C)C)C(=O)N[C@@H](C)C(=O)N[C@@H](Cc1c[nH]c2ccccc12)C(=O)N[C@@H](CC(C)C)C(=O)N[C@H](C(=O)N[C@@H](CCCNC(=N)N)C(=O)NCC(=O)N[C@@H](CCCNC(=N)N)C(=O)N[C@@H](CCCCNC(=O)COCCOCCNC(=O)COCCOCCNC(=O)CC[C@H](NC(=O)CCCCCCCCCCCCCCCCC(=O)O)C(=O)O)C(=O)NCC(=O)NCC(=O)N[C@@H](CO)C(=O)N[C@@H](CCCCNc1c(NCCCCCN(O)C(=O)CCC(=O)NCCCCCN(O)C(=O)CCC(=O)NCCCCCN(O)C(C)=O)c(=O)c1=O)C(=O)O)C(C)C,GLP1R,"cAMP reporter gene, agonist, CRE luciferase",BHK,"with Zr, 1% HSA",,EC50,0.067 nM
Cc1nn(-c2ccccc2)c2c1[C@H](c1cnsc1)[C@H](NC(=O)c1cccc(C(F)(F)F)c1)C(=O)N2,DCN1-like protein 1,,,,,IC50,> 15 µM
COc1cc(C[C@@H](C)N)c(OC)cc1I,"5-hydroxytryptamine receptor 2C (HTR2C, Homo sapiens, UniProt P28335)",agonist,,,,EC50,0.87 ± 0.23 nM
CC(C)OC(=O)[C@H](C)N[P@](=O)(OC[C@H]1O[C@@H](n2ccc(=O)[nH]c2=O)[C@](C)(F)[C@@H]1O)Oc1ccccc1,"Genome polyprotein, NS5 (GP1, West Nile virus, UniProt Q9Q6P4)",binding,,,,Kd,6810 µM
CCCc1cc(O)c2c(c1)OC(C)(C)[C@@H]1CCC(C)=C[C@@H]21,"Transient receptor potential cation channel subfamily V member 3 (TRPV3, Homo sapiens, UniProt Q8NET8, H430A)","calcium uptake, agonist",HEK293S,"mutant H430A, site 3",,EC50,3840 ± 180 nM
Clc1cccc(N2CCNCC2)c1Cl,"Muscarinic acetylcholine receptor M2 (CHRM2, Homo sapiens, UniProt P08172)","ERK1/2 phosphorylation, agonist",CHO cells,,,EC50,> 20000 nM

# Excerpt of the above:
Structure (SMILES),target,assay,system,setting,scale,measurement,value
COc1cc(C[C@@H](C)N)c(OC)cc1I,"5-hydroxytryptamine receptor 2C (HTR2C, Homo sapiens, UniProt P28335)",agonist,,,,EC50,0.87 ± 0.23 nM
